Assay results collected from several papers.
Every numbered part comes from another study and shows a few of its results, in no order. Changes are numbered by the printed parent chain.

Sample 1
Target: CCNE1, cyclin fold, Cln2 fusion (human)
Method: yeast growth competition, sequencing
Sample: yeast
Setting: strong parent motif
Baseline: not given
Direction: higher = stronger binding
Starting sequence: viral docking peptide; KGVKRKLFAEDSS; partner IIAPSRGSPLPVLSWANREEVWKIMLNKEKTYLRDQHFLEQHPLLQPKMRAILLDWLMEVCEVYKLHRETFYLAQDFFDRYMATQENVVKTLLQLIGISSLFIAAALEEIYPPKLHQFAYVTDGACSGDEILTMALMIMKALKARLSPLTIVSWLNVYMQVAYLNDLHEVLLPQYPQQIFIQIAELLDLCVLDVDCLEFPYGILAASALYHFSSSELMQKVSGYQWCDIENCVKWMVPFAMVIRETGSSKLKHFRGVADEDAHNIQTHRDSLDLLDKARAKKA
| Substitution | normalised enrichment score |
| --- | --- |
| A9Q | 7.51 |
| R5W | 0.246 |
| K6Y | 3.09 |
| D11I | 6.68 |

Sample 2
Target: Interferon regulatory factor 3, full length, phosphomimetic (IRF3, Homo sapiens, UniProt Q14653, residues 1-427, S386D/S396D/S398D/S402D/T404D/S405D)
Chain of UniProt Q14653 (whole entry, unmodified, looked up): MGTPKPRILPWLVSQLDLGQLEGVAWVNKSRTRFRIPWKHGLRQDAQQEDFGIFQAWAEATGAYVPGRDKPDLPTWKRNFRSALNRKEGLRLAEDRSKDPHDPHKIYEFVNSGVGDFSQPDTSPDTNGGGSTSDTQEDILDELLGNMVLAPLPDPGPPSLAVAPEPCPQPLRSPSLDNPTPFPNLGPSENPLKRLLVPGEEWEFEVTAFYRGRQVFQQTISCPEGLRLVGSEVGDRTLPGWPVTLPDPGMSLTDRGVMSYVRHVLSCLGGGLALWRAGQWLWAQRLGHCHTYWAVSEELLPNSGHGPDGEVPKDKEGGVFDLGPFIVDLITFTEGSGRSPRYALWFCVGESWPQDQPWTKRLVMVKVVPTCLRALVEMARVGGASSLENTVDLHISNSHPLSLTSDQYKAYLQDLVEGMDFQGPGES
Method: protein-binding microarray
Form: double-stranded DNA, one strand shown
Sample: in vitro
Concentration: 2540 nM top
Setting: 60-bp whole probe
With: salmon DNA 0.4 mg/ml
Baseline: random background probes
Direction: higher = stronger binding
Shared flanks, not repeated: GCCTAGCAC … GTCTTGATTCGCTTGACGCTGCTG
| Oligonucleotide | fitted relative affinity [z-score] |
| --- | --- |
| GACAGACTGGGGTTTCGGGACGTGCTA | 0.777 |
| TCATGTATATATGTGTAACTGTGCTAG | -0.0325 |
| TCAACTTTCTTTAACTCACTGTGCTAG | 1.25 |
| CGCTTTCTTTAACTCATTTTGTGCTAG | 1.33 |
| TTCATTTTGTTCATCATTGCGTGCTAG | 0.677 |
| TTAGGTATCGGATTCGGTTAGTGCTAG | 5.27 |
| TTAGATTTCAGTATTGATTAGTGCTAG | 1.82 |
| TTAGGTATCCTACCGCTTTAGTGCTAG | 1.58 |

Sample 3
Target: UBE2W UBC core domain (UniProt Q96B02)
Method: yeast two-hybrid
Sample: yeast
Setting: mostly zero background
Baseline: not given
Direction: higher = stronger interaction
B1: TRIM10 RING domain (UniProt Q9UDY6); chain SVTSLADEVNCPICQGTLREPVTIDCGHNFCRACLTRYCEIPGPDLEESPTCPLCKEPFRPGSFRP
B2: TRIM35 RING domain (UniProt Q9UPQ4); chain PSRSFKEELLCAVCYDPFRDAVTLRCGHNFCRGCVSRCWEVQVSPTCPVCKDRASPADLRT
B3: UBE4A RING domain (UniProt Q14139); chain LQQQEEETYADACDEFLDPIMSTLMCDPVVLPSSRVTVDRSTIARHLLSDQTDPFNRSPLTMDQIRPNTELKEKIQRWLAERKQQKEQLE
B4: RNF175 RING domain (UniProt Q8N4F7); chain LPTRSLSDNICAVCGQKIIVELDEEGLIENTYQLSCNHVFHEFCIRGWCIVGKKQTCPYCKEKVDLKRMIS
B5: MSL2 RING domain (UniProt Q9HCI7); chain LLPYFRQSLSCCVCGHLLQDPIAPTNSTCQHYVCKTCKGKKMMMKPSCSWCKDYEQFEENKQ
B6: RNF14 RING domain (UniProt Q9UBS8); chain IKCFNSKLFLCSICFCEKLGSECMYFLECRHVYCKACLKDYFEIQIRDGQVQCLNCPEPKCPSVATPGQVK
B7: TRIM15 RING domain (UniProt Q9C019); chain SLKVVHELPACTLCAGPLEDAVTIPCGHTFCRLCLPALSQMGAQSSGKILLCPLCQEEEQAETPMA
B8: PHF7 RING domain (UniProt Q9BWX1); chain IQHGHVGEESCILCCEDLSQQSVENIQSPCCSQAIYHRKCIQKYAHTSAKHFFKCPQCNNRKEFPQEML
Construct (chain): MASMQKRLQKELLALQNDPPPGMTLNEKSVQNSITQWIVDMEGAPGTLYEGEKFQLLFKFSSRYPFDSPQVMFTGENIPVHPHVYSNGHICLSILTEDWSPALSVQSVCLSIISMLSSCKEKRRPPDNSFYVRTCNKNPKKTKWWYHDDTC
| Sequence | lacZ reporter activity |
| --- | --- |
| B1 (TRIM10 RING domain) | 0 |
| B2 (TRIM35 RING domain) | 0 |
| B3 (UBE4A RING domain) | 0 |
| B4 (RNF175 RING domain) | 0 |
| B5 (MSL2 RING domain) | 0 |
| B6 (RNF14 RING domain) | 0 |
| B7 (TRIM15 RING domain) | 0 |
| B8 (PHF7 RING domain) | 0 |
| LKQVSIRENCCSLCCDEVADTQLKPCGHSDLCMDCALQLETCPLCRKEIVSRIRQI (RSPRY1 RING domain (UniProt Q96DX4)) | 0 |

Sample 4
Target: Sal-like protein 4, full length isoform B (SALL4, Homo sapiens, UniProt Q9UJQ4-2, residues 1-616)
Method: universal PBM
Form: double-stranded DNA, one strand shown
Sample: in vitro
Concentration: not given
Setting: 8-mer, flanks averaged, mean of replicates
Direction: higher = stronger binding
| Oligonucleotide | E-score |
| --- | --- |
| CGAGATGC | -0.0172 |
| CGAGACAA | -0.139 |
| AAGATCCA | -0.0537 |
| ACGGTACC | -0.218 |
| ATCCCCCC | -0.362 |
| AAGGGGTC | -0.19 |
| CGGAGGGA | -0.24 |
| CACCGACG | -0.227 |

Some of these lines once more (sample 4):
| Oligonucleotide | E-score |
| --- | --- |
| CGAGATGC | -0.0172 |
| CGAGACAA | -0.139 |
